Experimental data pooled from the literature.
A part holds a random share of what one study measured.
Sequence of UniProt P41279 (whole entry, looked up): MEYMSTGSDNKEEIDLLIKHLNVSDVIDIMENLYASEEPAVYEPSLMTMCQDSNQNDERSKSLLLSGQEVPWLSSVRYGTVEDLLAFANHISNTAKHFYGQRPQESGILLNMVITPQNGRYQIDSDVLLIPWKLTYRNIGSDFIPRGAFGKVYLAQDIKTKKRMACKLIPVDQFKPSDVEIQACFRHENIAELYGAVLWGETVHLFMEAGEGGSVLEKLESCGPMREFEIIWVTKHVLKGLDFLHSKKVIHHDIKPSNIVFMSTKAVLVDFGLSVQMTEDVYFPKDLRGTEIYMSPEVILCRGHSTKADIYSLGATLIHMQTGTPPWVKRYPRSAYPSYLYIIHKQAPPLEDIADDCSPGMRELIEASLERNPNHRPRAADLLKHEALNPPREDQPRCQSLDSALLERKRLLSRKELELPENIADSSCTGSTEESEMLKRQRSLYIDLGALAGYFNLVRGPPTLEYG
Sequence of UniProt P51957 (whole entry, looked up): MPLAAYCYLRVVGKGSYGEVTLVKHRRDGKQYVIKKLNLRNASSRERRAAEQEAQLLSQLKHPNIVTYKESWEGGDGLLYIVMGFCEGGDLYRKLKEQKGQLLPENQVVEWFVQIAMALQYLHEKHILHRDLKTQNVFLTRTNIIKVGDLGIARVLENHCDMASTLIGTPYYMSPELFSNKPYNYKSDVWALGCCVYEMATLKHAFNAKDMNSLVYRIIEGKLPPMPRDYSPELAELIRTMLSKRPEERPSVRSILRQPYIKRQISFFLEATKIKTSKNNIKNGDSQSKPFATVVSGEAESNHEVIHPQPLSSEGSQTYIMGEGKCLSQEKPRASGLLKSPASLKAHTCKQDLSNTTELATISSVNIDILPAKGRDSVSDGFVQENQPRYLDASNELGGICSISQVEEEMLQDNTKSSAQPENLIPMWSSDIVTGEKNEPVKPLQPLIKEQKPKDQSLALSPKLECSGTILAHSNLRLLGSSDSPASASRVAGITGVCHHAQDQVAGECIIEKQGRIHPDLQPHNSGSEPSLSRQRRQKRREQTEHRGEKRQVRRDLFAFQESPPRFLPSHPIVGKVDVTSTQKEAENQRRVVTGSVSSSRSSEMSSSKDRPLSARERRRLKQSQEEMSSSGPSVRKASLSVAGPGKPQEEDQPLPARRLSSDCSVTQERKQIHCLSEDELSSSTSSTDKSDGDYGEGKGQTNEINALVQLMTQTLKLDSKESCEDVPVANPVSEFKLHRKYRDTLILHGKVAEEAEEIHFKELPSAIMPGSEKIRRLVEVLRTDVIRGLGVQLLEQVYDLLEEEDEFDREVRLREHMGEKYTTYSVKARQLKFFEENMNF
Sequence of UniProt Q00535 (whole entry, looked up): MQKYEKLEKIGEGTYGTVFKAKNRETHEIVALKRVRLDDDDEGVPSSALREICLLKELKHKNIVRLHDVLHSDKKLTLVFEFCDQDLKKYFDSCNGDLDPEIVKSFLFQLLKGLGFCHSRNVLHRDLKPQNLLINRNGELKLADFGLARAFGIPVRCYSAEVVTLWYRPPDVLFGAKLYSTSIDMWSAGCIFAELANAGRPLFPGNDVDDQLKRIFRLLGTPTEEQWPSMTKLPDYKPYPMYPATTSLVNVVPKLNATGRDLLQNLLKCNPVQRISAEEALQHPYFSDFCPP
Sequence of UniProt P48729 (whole entry, looked up): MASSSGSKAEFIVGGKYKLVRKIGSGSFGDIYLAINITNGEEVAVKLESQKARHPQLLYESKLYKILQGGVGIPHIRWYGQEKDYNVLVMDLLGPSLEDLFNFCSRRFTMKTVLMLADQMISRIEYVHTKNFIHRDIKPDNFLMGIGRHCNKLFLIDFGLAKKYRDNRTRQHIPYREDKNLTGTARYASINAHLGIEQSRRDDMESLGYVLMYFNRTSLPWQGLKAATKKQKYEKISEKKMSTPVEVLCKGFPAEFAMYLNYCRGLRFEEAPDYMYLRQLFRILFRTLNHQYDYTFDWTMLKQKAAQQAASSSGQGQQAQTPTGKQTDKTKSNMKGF
Sequence of UniProt Q9Y6M4 (whole entry, looked up): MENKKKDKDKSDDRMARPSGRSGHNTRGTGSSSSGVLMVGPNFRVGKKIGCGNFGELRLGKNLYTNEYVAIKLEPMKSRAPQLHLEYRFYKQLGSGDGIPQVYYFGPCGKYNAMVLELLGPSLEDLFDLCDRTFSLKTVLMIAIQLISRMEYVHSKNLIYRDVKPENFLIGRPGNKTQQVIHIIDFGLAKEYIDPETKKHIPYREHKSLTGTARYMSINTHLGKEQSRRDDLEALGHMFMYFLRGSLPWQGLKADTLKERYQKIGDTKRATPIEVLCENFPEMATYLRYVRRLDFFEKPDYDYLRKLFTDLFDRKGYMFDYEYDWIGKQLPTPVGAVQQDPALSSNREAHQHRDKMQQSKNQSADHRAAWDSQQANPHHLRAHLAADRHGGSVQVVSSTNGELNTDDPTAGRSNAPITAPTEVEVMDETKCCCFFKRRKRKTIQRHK
Sequence of UniProt P36894 (whole entry, looked up): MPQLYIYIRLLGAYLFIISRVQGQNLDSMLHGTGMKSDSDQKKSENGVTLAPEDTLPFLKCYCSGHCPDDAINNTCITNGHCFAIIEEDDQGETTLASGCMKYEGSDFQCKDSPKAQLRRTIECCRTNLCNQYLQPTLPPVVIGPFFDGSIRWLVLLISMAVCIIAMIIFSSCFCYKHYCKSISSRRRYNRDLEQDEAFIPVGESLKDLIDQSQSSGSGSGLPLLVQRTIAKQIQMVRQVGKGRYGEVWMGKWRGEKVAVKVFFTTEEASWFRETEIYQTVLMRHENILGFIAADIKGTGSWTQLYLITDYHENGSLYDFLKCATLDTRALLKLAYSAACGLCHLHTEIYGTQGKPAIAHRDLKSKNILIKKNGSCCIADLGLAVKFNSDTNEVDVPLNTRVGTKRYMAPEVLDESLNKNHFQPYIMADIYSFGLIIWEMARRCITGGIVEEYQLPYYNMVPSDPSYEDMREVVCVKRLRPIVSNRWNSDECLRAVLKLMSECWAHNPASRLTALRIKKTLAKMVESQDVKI
Sequence of UniProt Q8TDR2 (whole entry, looked up): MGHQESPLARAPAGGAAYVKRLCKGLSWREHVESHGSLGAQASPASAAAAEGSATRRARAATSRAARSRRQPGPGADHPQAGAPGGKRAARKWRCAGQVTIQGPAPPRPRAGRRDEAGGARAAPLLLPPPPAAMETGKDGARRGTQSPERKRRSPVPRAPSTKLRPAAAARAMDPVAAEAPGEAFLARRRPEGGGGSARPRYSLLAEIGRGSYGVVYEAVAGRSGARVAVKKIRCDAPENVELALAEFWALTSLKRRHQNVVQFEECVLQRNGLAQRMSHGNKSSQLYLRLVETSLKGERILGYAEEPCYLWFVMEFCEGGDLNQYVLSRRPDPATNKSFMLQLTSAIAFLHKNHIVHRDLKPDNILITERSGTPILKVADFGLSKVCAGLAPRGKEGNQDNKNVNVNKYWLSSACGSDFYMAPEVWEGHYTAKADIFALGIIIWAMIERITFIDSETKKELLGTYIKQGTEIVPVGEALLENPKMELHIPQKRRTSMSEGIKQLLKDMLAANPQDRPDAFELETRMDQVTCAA
Sequence of UniProt P53667 (whole entry, looked up): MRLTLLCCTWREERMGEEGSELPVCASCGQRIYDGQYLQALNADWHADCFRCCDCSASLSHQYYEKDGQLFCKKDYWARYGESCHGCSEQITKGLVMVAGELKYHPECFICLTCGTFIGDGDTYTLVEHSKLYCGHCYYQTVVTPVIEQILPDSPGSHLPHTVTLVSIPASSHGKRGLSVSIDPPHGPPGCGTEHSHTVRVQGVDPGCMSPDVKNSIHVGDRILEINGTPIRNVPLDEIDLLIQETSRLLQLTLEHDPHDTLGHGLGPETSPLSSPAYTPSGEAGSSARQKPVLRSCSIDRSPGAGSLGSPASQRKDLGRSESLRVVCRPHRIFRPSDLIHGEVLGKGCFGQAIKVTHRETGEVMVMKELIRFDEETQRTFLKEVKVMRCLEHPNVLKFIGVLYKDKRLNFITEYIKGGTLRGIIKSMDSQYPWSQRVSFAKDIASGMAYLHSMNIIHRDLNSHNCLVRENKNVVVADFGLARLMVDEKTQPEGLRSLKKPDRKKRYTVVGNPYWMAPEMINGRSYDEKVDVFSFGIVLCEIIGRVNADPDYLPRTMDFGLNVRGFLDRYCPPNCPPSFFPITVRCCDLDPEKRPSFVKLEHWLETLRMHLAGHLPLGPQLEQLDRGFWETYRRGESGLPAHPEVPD
Sequence of UniProt P07332 (whole entry, looked up): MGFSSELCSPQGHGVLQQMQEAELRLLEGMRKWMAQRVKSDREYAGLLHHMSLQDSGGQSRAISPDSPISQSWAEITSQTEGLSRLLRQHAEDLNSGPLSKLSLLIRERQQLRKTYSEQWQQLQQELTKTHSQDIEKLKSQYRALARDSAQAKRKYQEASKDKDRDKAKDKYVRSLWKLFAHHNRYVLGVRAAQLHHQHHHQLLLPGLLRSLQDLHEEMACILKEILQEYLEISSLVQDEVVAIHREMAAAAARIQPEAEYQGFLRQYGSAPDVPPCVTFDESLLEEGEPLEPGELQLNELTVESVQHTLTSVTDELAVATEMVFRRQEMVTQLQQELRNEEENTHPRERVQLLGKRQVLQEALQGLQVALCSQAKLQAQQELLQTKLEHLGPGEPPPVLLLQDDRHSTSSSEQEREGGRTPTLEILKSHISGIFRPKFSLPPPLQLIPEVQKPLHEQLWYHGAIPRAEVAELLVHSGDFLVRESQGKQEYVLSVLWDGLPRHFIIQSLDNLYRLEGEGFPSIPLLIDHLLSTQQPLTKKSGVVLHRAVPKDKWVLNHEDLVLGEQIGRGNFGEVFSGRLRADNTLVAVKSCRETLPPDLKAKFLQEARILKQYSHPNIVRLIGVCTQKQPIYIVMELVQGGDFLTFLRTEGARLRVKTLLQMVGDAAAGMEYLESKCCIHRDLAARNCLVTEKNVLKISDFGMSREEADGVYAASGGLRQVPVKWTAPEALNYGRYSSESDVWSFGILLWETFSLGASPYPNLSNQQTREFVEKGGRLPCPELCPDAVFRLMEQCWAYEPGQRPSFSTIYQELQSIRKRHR

Sample 1 — mode: inhibitor; tested at: 10 µM; relative to: control; quantity: remaining activity
Target: Diamine acetyltransferase 1 (Homo sapiens, UniProt P21673)
Target sequence (P21673 1-171): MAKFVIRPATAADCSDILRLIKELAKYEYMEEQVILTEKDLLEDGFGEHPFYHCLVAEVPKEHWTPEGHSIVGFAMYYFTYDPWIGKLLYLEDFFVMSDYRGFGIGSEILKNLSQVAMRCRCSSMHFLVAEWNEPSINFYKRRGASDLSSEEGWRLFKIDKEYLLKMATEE
COc1ccc(-c2cc(=O)c3c(O)cc(O)cc3o2)cc1: 84.8%
COc1ccc(-c2cc(=O)c3c(OC)c(OC)c(OC)c(OC)c3o2)cc1: 97.5%
O=c1c(-c2ccc(O)cc2)coc2cc(O)cc(O)c12: 101%
CC(C)=CCCc1ccoc1: 72.6%
O=c1cc(-c2ccc(O)cc2)oc2cc(O[C@@H]3O[C@H](CO)[C@@H](O)[C@H](O)[C@H]3O[C@@H]3OC[C@](O)(CO)[C@H]3O)cc(O)c12: 101%

Sample 2 — SMILES: CC(C)(O)c1cncc(-c2nc3ccc(F)cc3n2C2CC2)c1; method: competition with immobilised ligand; tested at: 1 µM; quantity: remaining binding
Serine/threonine-protein kinase B-raf (BRAF, Homo sapiens, UniProt P15056); cell-free assay: 100%
Serine/threonine-protein kinase 35 (STK35, Homo sapiens, UniProt Q8TDR2); cell-free assay: 100%
Cyclin-dependent kinase 5 (CDK5, Homo sapiens, UniProt Q00535); cell-free assay: 100%
LIM domain kinase 1 (LIMK1, Homo sapiens, UniProt P53667); cell-free assay: 100%
Bone morphogenetic protein receptor type-1A (BMPR1A, Homo sapiens, UniProt P36894); binding: 88%

Sample 3 — read-out: enzyme activity; mode: inhibitor; tested at: 0.5 µM; relative to: control; quantity: remaining activity
Target: Serine/threonine-protein kinase 4 (STK4, Homo sapiens, UniProt Q13043)
Target sequence (Q13043 1-487): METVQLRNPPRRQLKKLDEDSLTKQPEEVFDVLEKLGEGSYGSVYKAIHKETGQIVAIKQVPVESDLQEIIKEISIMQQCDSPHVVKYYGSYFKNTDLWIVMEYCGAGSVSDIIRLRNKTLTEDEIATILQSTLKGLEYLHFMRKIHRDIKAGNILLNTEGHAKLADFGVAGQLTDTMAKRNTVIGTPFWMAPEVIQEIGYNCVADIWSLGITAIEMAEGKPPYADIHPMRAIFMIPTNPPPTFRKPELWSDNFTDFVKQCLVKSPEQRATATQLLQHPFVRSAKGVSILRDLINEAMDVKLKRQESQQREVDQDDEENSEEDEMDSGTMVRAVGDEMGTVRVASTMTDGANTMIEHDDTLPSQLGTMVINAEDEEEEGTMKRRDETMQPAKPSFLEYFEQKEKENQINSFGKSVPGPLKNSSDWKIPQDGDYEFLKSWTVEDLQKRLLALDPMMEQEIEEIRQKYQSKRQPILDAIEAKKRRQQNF
Cn1sc(=O)n(Cc2ccccc2)c1=O: 107%
Nc1[nH]nc2nc3ccccc3nc12: 94.5%
NCCNc1ncc(C(N)=O)c(Nc2cccc(C(F)(F)F)c2)n1: 65.2%
CN(C)c1ccc(C=C2C(=O)Nc3ccccc32)cc1: 93.2%
COc1cc2ncnc(Nc3ccc(Oc4ccccc4)cc3)c2cc1OC: 107%
COc1ccc(C(=O)Nc2sc3c(c2C(N)=O)CCCC3)cc1OC: 104%
COc1ccc(CNC(=O)Nc2ncc([N+](=O)[O-])s2)cc1: 99.8%
Cn1c2ccccc2c2c3c(c4c5ccccc5n(CCC#N)c4c21)CNC3=O: 3.73%
CC(C)[C@H](CO)Nc1nc(Nc2cc(N)cc(Cl)c2)c2ncn(C(C)C)c2n1: 63.6%
C#Cc1cccc(Nc2ncnc3cc(OCCOC)c(OCCOC)cc23)c1: 97.4%
Cc1ccc(Nc2nccc(N(C)c3ccc4c(C)n(C)nc4c3)n2)cc1S(N)(=O)=O: 98.4%
Cc1cccc(-c2[nH]c(C(C)(C)C)nc2-c2ccc3c(c2)OCO3)n1: 98.7%
COc1cc2ncnc(Nc3ccc(F)c(Cl)c3)c2cc1OCCCN1CCOCC1: 101%
Nc1ncnc2n[nH]c(Nc3ccc(F)cc3)c12: 90.4%
Nc1ccc2ncnc(NCCc3ccc(Oc4ccccc4)cc3)c2c1: 95.8%
O=C1NC(=O)C(c2cn(CCCn3ccnc3)c3ccccc23)=C1Nc1ccccc1: 40.9%

Sample 4 — read-out: kinase activity; mode: inhibitor; tested at: 1 µM; quantity: remaining activity
SMILES: CC(C)S(=O)(=O)c1ccc2nccc(Nc3ccc4sc(C5CCCC5)nc4c3)c2c1.Cl
Casein kinase I isoform alpha (CSNK1A1, Homo sapiens, UniProt P48729): 97%
Serine/threonine-protein kinase Nek4 (NEK4, Homo sapiens, UniProt P51957): 97%
Tyrosine-protein kinase Fes/Fps (FES, Homo sapiens, UniProt P07332): 97%
Casein kinase I isoform gamma-3 (CSNK1G3, Homo sapiens, UniProt Q9Y6M4): 109%
Mitogen-activated protein kinase kinase kinase 8 (MAP3K8, Homo sapiens, UniProt P41279): 103%

Sample 5 — cell line: HaCaT; tested at: 100 µM; time: 36 h; quantity: viability
COC(=O)N[C@H](C(=O)N1CCC[C@H]1c1nc(-c2ccc(-c3ccc(-c4c[nH]c([C@@H]5CCCN5C(=O)[C@@H](NC(=O)OC)C(C)C)n4)cc3)cc2)c[nH]1)C(C)C: 11.9%
CCOC(=O)C1=C[C@]2(CC)CCCN3CCc4c(n1c1ccccc41)[C@@H]32: 76.4%
CC(=O)OCC(=O)[C@@]12OC(C)(C)O[C@@H]1C[C@H]1[C@@H]3C[C@H](F)C4=CC(=O)C=C[C@]4(C)[C@@]3(F)[C@@H](O)C[C@@]12C: 97.2%
CN(C)CCN(Cc1ccc(Cl)cc1)c1ccccn1: 59%

Repeated from above (sample 5):
CC(=O)OCC(=O)[C@@]12OC(C)(C)O[C@@H]1C[C@H]1[C@@H]3C[C@H](F)C4=CC(=O)C=C[C@]4(C)[C@@]3(F)[C@@H](O)C[C@@]12C: 97.2%
COC(=O)N[C@H](C(=O)N1CCC[C@H]1c1nc(-c2ccc(-c3ccc(-c4c[nH]c([C@@H]5CCCN5C(=O)[C@@H](NC(=O)OC)C(C)C)n4)cc3)cc2)c[nH]1)C(C)C: 11.9%
CCOC(=O)C1=C[C@]2(CC)CCCN3CCc4c(n1c1ccccc41)[C@@H]32: 76.4%
CN(C)CCN(Cc1ccc(Cl)cc1)c1ccccn1: 59%
